Measurements gathered from unrelated publications.
Each numbered part is a random draw from the data of one study; scales do not carry over between parts.

Block 1 — method: protein-binding microarray; molecule type: double-stranded DNA, one strand shown; medium: in vitro; concentration: 2200 nM top; setting: 60-bp whole probe; with: salmon DNA 0.4 mg/ml; relative to: random background probes; reading: higher = stronger binding; shared flanks, not repeated: GCCTAGCAC … GTCTTGATTCGCTTGACGCTGCTG
Target: Interferon regulatory factor 7, full length, phosphomimetic (IRF7, Homo sapiens, UniProt Q92985, residues 1-503, S471D/S472D/S475D/S476D/S477D/S483D/S484D/S487D)
Residues (chain): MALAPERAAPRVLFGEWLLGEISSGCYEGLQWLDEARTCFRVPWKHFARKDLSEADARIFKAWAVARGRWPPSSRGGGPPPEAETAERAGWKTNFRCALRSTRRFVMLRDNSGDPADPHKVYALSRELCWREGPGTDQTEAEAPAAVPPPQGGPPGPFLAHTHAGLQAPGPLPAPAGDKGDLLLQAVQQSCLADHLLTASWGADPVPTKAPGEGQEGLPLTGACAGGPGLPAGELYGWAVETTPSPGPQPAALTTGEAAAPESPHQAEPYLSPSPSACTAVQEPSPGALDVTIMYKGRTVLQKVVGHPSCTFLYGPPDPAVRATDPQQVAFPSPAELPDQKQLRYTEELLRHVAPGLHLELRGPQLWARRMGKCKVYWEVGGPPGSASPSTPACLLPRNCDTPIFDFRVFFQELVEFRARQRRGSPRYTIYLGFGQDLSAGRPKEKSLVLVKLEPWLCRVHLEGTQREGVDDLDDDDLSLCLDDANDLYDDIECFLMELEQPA
Strand	fitted relative affinity [z-score]
TCAGGTTTCGGTATCGGTTAGTGCTAG	8.23
GACGAACTGGGGACTGGTGACGTGCTA	-0.213
GACGATCTCAGTCTCGAGTCGTGCTAG	0.618
TTCGGACTGGACTTTCGGTTAGTGCTA	5.13
TTAGGTTTCGGGTTTCGGTTAGTGCTA	11.2
TCAGCTTCCTCTTTCACACTGTGCTAG	3
CTGCTGATCGGTTGGGGTGGGTGCTAG	0.0556
GACGATCCCAGTATCGAGACGTGCTAG	0.459
GACGATTCCAGTTTCGAGACGTGCTAG	4.23
GGCTCTCTGGACTGTGTGTTTGTGCTA	0.123
GACGGTCTCGGTATCCGGACGTGCTAG	0.667
TCAGATTTCAGTATCGATTAGTGCTAG	1.4
GACGGACTGGGTTTCGGGATGTGCTAG	1.78
GACGATTTGGGGTTTCGAGACGTGCTA	1.95
TTAGGTTTCGGTTTCCGTTAGTGCTAG	14.1
TTAGGTTCCGGTTTCTGTTAGTGCTAG	5.22
TCACATCTCACTCTAATACTGTGCTAG	1.69
TCAGTTACCCATCTCAAACTGTGCTAG	1.41
TTAGCTATCAGTATCGATTAGTGCTAG	0.57

Block 2 — method: protein binding microarray; molecule type: double-stranded DNA, one strand shown; medium: in vitro; concentration: not given; relative to: not given; reading: higher = stronger binding
Target: Histone acetyltransferase KAT6A, winged helix 1, GST fusion (KAT6A, Homo sapiens, UniProt Q92794, residues 1-85)
Setting: 8-mer, flanks averaged, mean of 2 arrays, mostly near background
Residues (chain): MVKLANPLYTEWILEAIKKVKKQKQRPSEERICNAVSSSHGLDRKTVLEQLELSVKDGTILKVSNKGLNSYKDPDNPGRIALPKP
Strand	E-score
GACTTATC	-0.15
AAGCTTAG	-0.0616
TCAGAGCA	-0.212
GCTCTGGA	-0.0888
CTTTGTTC	-0.0345
TTAGCGAA	0.0169
GTGCGAAC	0.125
AGACGTAT	-0.094
CCCAGAGC	-0.0972
AAAAACCT	-0.212
AGTTATCA	-0.175
ACGATTAC	-0.0437
ATTGGACC	-0.0303
CTATGTTA	0.106
GACACTAC	-0.0951
ACGCAATC	0.115
TCGCAAGA	0.000745
CTCCAGAA	-0.213
AGCAAATG	-0.278
GAGCGCTC	0.349
ACCTCTCT	-0.229
GCGCGACC	0.394
ACGCTGCG	0.227
ATGAACGA	-0.0425
ATCTGACG	0.00522

Block 3 — method: universal PBM; molecule type: double-stranded DNA, one strand shown; medium: in vitro; concentration: not given; reading: higher = stronger binding
Target: Sal-like protein 4, full length isoform B (SALL4, Homo sapiens, UniProt Q9UJQ4-2, residues 1-616)
Setting: 8-mer, flanks averaged, mean of replicates
Strand	E-score
GCACTACC	-0.0088
AAGCGGCA	-0.179
CGGACCGA	-0.289
CGGAGTAG	-0.126
CCGCAGGC	-0.283
CTAAGTGA	0.0397
ACCTGTGC	-0.037
AAACCCTG	-0.00884
ACGATATC	0.134
ATCGCCCA	-0.21
ACGAATCC	0.0625
AAGGCTCC	-0.301
TCAGTCGA	-0.0654
GCAGCTTA	-0.174
GTCAAGGA	-0.114
CGGGAAAG	-0.177
AGTCGTGA	-0.0304
CACGACTA	-0.0914
ATTTACTC	0.146
AACTGTTC	-0.0911
CACGGTCC	-0.386
GAGCGGAC	-0.332
AATCATCG	0.0968
ACAATGCC	-0.0607
CGGCCTTA	-0.0659

Block 4 — method: RNA Bind-n-Seq; molecule type: RNA; medium: in vitro; concentration: 365 nM; relative to: no-protein control; reading: higher = stronger binding
Target: RNA binding protein fox-1 homolog 2, RRM domain, GST-SBP tag (RBFOX2, Homo sapiens, UniProt O43251-10, residues 100-194)
Setting: natural RNA segment, single round, ends assumed
Shared flanks, not repeated: GGGAGUUCUACAGUCCGACGAUC … UGGAAUUCUCGGGUGCCAA
Residues (chain): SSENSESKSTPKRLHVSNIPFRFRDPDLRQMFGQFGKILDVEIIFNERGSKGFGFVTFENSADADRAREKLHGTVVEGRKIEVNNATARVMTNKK
Strand	RBNS enrichment (R)
AAGGUCACACCAUGAUGGAGAACACAGGUCAUUUGGGUACGUGUAAUCAAAGUGCCCUCCCAAAUCAGUUCUCCUUUUCGUAUGAACAGCAUCUCUACUUUUAAAGAGGA	0.368
UGAGCGACAUAGCCAGUCCGCCUCUGGUCAUGGCAGAACUGAUGCUGGACUUUGGUAUCUGAGGCAGAGGUGAACUGCAGGCCAGUGGCUCCUCUUGGGGAAAUUGUGUA	0.622
GGGCCAGGUCUCUGUCCGUCCUCUUCCCUGCACAAGUGUGUCGAUCUUAGAUUGCCACUGCUUUCAUUGAAGACCCUCAAUGCCAAGAAACGUGUCCCUGGCCCAUAUUA	0.381
UAAAUGUGACUUUUAUGUCAGCCAUCGUCAGUUUCAACAUCUAGAACUAAAUAGAAAGCUAGUUGUUCCGCAGAUAGGAGUAGUCUUUAUUGUCCUGUACGGUCGGUGGC	0.369
GCUCAGGAGUUUGGGAGAGGGGCAGGAGAAGGAUAAGAAAGCCUGGGUUUUAGGCUUGCCUGGGAAGCUACAGUCAAGGUGCAUUCUGGGAGCUACUCAUCCCCAGCAGU	1.13
GGCUGCCCUGGAACUCACUUUGCAGACCAGGCUGGCCUCGAACUCAGAAAUCCGCCUGCCUCUGCCUCCCAAGUGCUGGGAUUAAAGGCGUGCGCCACCUCCGCCCAGCU	0.335
GUAGGGUAAGGGAGAGGGACCCUGCCGGUGUUCACUGGGGAUUCUUUCUUUUGGUCCUUCCUGGAAUGAACAGGUUCCCUCCCUGCCACCUGUGAGGAGAGUUGGGGCCC	0.298
UACCUCUGAUUGCAUCACUAGGACUAACUACAAGCUGGCUGGGGAUACUCCCUUGUGUGUUCUGUCCUAUCCAGAUGGCCUGCUAGAUUGAAUUAUACUCACCAACACAU	0.948

Repeated from above (block 3):
Strand	E-score
ACAATGCC	-0.0607
CGGAGTAG	-0.126
GAGCGGAC	-0.332
CTAAGTGA	0.0397
AATCATCG	0.0968
ACGAATCC	0.0625
CACGACTA	-0.0914
ATTTACTC	0.146
AAACCCTG	-0.00884
